Published values collected from several papers.
± marks the error that the study gave.

C[N+](C)(CCOCCOCCOCCNC(=S)Nc1ccc(C[C@H]2CN(CC(=O)[O-])CCN(CC(=O)[O-])CCN2CC(=O)[O-])cc1)C[c-]1cccc1.[64Cu+2].[Fe+2].c1cc[cH-]c1
intact compound (radio-HPLC; PBS; 240 min, pH 7.4): 81.2 ± 3.2%

CN(O)C(=O)CCC(=O)NCCCN(CCCCN(CCCNC(=O)CCC(=O)N(C)O)C(=O)CCC(=O)N(C)O)C(=O)CCC(=O)N(C)O.[89Zr]
intact complex (radio-TLC; aqueous buffer; 5 d, pH 7, 37 °C, 89Zr-labelled complex, added: DTPA 100-fold excess): 98.3 ± 0.5%

Cc1ccc(C(C)C)cc1.O=C(N=P(c1ccccc1)(c1ccccc1)c1ccccc1)c1[c-]cccc1.[Cl-].[Ru+2]
intact compound (DMSO-d6; 1 week): 58%

CN([O-])C(=O)CN1CCN(CC(=O)N(C)[O-])CCN(Cc2ccccn2)CC1.[89Zr+4]
intact complex (radio-TLC; human serum; 7 days, run 2): 92.2%

C[N+](C)(CCOCCOCCOCCOCCOCCOCCOCCNC(=S)Nc1ccc(CC2CN(CC(=O)[O-])CCN(CC(=O)[O-])CCN2CC(=O)[O-])cc1)C[c-]1cccc1.[64Cu+2].[Fe+2].c1cc[cH-]c1 (stereo not shown)
intact compound (radio-HPLC; human plasma; 240 min, 37 °C): 86.5 ± 0.1%

CN([O-])C(=O)CN1CCNCCN(CC(=O)N(C)[O-])CC1.[89Zr+4]
intact complex (radio-TLC; human serum; 3 days, run 2): 100%

COc1ccc2c(c1)C(C)(C)C(/C=C/C1=C(Oc3ccc(C(=O)NCCCCOc4cc(CN(Cc5ccccn5)Cc5ccccn5)cc(CN(Cc5ccccn5)Cc5ccccn5)c4)cc3)C(=C/C=C3/N(CCCCS(=O)(=O)[O-])c4ccc(OC)cc4C3(C)C)CCC1)=[N+]2CCCCS(=O)(=O)[O-].O=[N+]([O-])[O-].O=[N+]([O-])[O-].[99Tc+].[C-]#[O+].[C-]#[O+].[C-]#[O+].[Zn+2]
intact compound (radio-TLC; formulation buffer; 18 h, room temperature): 97.7%

O=C([O-])CN1CCN(CC(=O)[O-])CCN(CC(CCCc2ccccc2[N+](=O)[O-])N(CC(=O)[O-])CC(=O)[O-])CC1.[177Lu+3] (stereo not shown)
intact radiolabelled complex (HPLC; human serum; 0 h, pH 7, 37 °C): 100%

CN([O-])C(=O)CN1CCN(CC(=O)N(C)[O-])CCN(CC(=O)N(C)[O-])CC1.[89Zr+4]
intact complex (radio-TLC; human serum; 7 days, run 2): 97.7%

CC(=O)N([O-])CCCCCNC(=O)CCC(=O)N([O-])CCCCCNC(=O)CCC(=O)N([O-])CCCCCN.[89Zr+4]
intact complex (radio-TLC; aqueous buffer; 7 d, pH 7.2, 37 °C, 89Zr-labelled complex, added: FeCl3 10-fold excess): 89.2 ± 0.8%

Repeated from above:
C[N+](C)(CCOCCOCCOCCNC(=S)Nc1ccc(C[C@H]2CN(CC(=O)[O-])CCN(CC(=O)[O-])CCN2CC(=O)[O-])cc1)C[c-]1cccc1.[64Cu+2].[Fe+2].c1cc[cH-]c1
intact compound (radio-HPLC; PBS; 240 min, pH 7.4): 81.2 ± 3.2%
